Experimental data collected from several papers.
Lines come from different studies, so protocols differ. Several values in a cell are separate wells, animals, samples, runs or records. ± marks the error that the study gave.
GBA1 R534H: Lysosomal acid glucosylceramidase (GBA1, Homo sapiens, UniProt P04062, R534H)
Sequence of UniProt P04062 (whole entry, unmodified, looked up): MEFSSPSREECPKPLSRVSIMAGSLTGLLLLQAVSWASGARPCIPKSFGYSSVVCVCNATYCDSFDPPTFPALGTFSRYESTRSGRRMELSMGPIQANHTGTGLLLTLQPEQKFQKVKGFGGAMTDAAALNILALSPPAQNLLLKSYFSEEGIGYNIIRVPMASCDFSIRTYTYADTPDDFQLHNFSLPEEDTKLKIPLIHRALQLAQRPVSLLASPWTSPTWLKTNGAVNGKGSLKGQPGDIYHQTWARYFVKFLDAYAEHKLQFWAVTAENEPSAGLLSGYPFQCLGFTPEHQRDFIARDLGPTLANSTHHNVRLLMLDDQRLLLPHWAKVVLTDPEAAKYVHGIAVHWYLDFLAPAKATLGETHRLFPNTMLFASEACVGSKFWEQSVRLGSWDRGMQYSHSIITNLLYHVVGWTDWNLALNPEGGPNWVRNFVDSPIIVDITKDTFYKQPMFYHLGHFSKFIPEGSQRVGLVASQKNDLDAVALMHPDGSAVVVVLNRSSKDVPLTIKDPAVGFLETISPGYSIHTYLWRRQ

Substance | tested on | test | system | conditions | how to read | endpoint | value
CCCC[C@H](NC(=O)CCCCCCCNC(=O)CN1CCN(CC(=O)O)CCN(CC(=O)O)CC1)C(=O)N[C@H]1CC(=O)NCCCC[C@@H](C(N)=O)NC(=O)[C@H](Cc2c[nH]c3ccccc23)NC(=O)[C@H](CCCNC(=N)N)NC(=O)[C@@H](Cc2ccccc2)NC(=O)[C@H](Cc2c[nH]cn2)NC1=O [technetium-99m labelled] | – | – | C57 mouse, bone | intravenous, 0.037 MBq, 2 h | – | tissue uptake | 0.02 ± 0.01 %ID/g
N=C(N)NCCC[C@@H]1NC(=O)[C@H](CCCCNC(=S)Nc2ccc(CC3CN(CC(=O)O)CCN(CC(=O)O)CCN(CC(=O)O)CCN3CC(=O)O)cc2)NC(=O)[C@@H](Cc2ccc(O)cc2)NC(=O)[C@H](CC(=O)O)NC(=O)CNC1=O (stereo partly drawn) [actinium-225 labelled] | – | – | mice with U-87 MG tumour, tumour | – | – | effective half-life | 69.4 h
N=C(N)NCCC[C@@H]1NC(=O)[C@H](CCCCNC(=O)CC[C@H](NC(=O)CN2CCN(CC(=O)O)CCN(CC(=O)O)CCN(CC(=O)O)CC2)C(=O)NCCCC[C@@H]2NC(=O)[C@@H](Cc3ccccc3)NC(=O)[C@H](CC(=O)O)NC(=O)CNC(=O)[C@H](CCCNC(=N)N)NC2=O)NC(=O)[C@@H](Cc2ccccc2)NC(=O)[C@H](CC(=O)O)NC(=O)CNC1=O [indium-111 labelled] | – | – | female BALB/c nude mice, U-87 MG xenograft, blood | intravenous, dose not given, 4 h | – | blood radioactivity | < 0.05 %ID/g
OC[C@@H]1[C@@H](O)[C@H](O)[C@@H](O)CN1CCCCCCC12CC3CC(CC(C3)C1)C2 | GBA1 R534H | inhibitor, 4MU-β-D-glucopyranoside | – | added: 4MU-β-D-glucopyranoside | – | IC50 | 0.06 µM
CC1CCC(C(C)C)C(OC(=O)Cn2c(-c3ccc(Br)cc3)[n+](C)c3ccccc32)C1.[Cl-] (stereo not drawn) | Trypanosoma cruzi | reporter mRNA translation, inhibitor, refers to: capped polyadenylated Renilla luciferase mRNA | cell-free extract | concentration not given | reference: control RNA | relative translation | 81.1%
CC(C)C[C@H](NC(=O)[C@H](Cc1ccc(O)cc1)NC(=O)[C@@H](CCCNC(=N)N)NC(=O)[C@@H](CO)NC(=O)[C@H](Cc1ccccc1)NC(=O)[C@H](CC1CCCCC1)NC(=O)[C@H](CC(=O)O)NC(=O)CN1CCN(CC(=O)O)CCN(CC(=O)O)CCN(CC(=O)O)CC1)C(=O)N[C@@H](Cc1c[nH]c2ccccc12)C(=O)N[C@@H](CO)C(=O)O [copper-64 labelled] | – | – | human, muscle | concentration not given, 3 h | – | activity concentration | 771 Bq/mL and 1480 Bq/mL and 580 Bq/mL and 727 Bq/mL and 721 Bq/mL and 674 Bq/mL
CCCC[C@@H]1NC(=O)[C@@H](CC(C)C)NC(=O)[C@H](CCCCNC(=O)CN2CCN(CC(=O)O)CCN(CC(=O)O)CC2)NC(=O)[C@@H](CO)NC(=O)[C@H](Cc2c[nH]cn2)NC(=O)[C@@H](Cc2c[nH]c3ccccc23)NC1=O [copper-64 labelled] | – | – | Balb/c mice, bone | intravenous, dose not given | – | tissue uptake | 0.28 ± 0.04 %ID/g
C[C@@H](OCCCCCN1C[C@H](O)[C@@H](O)[C@H](O)[C@H]1CO)c1ccc(-c2ccccc2)cc1 | GBA1 R534H | inhibitor, 4MU-β-D-glucopyranoside | – | added: 4MU-β-D-glucopyranoside | – | IC50 | 300 µM
CCCC[C@@H]1NC(=O)[C@@H](CC(C)C)NC(=O)[C@H](CCCCNC(=O)CN2CCN(CC(=O)O)CCN(CC(=O)O)CC2)NC(=O)NNC(=O)[C@H](Cc2c[nH]cn2)NC(=O)[C@@H](Cc2c[nH]c3ccccc23)NC1=O [copper-64 labelled] | – | – | Balb/c mice, pancreas | intravenous, dose not given | – | tissue uptake | 0.21 %ID/g
CC(C)C[C@@H](NC(=O)[C@@H](CC(C)C)NC(=O)[C@@H](CC(=O)O)NC(=O)[C@@H](CC(C)C)NC(=O)[C@@H](CC(C)C)NC(=O)[C@@H](CC(C)C)NC(=O)[C@H](NC(=O)[C@@H](CC(=O)O)NC(=O)[C@H](NC(=O)[C@H]1CCCN1C(=O)[C@@H](Cc1ccccc1)NC(=O)[C@@H](CC(C)C)NC(=O)[C@@H](CC(C)C)NC(=O)[C@@H](CC(=O)O)NC(=O)[C@@H](CC(C)C)NC(=O)[C@@H](Cc1ccc(O)cc1)NC(=O)[C@@H](C)NC(=O)[C@@H](CCCNC(=N)N)NC(=O)[C@@H](Cc1c[nH]c2ccccc12)NC(=O)[C@H]1CCCN1C(=O)[C@@H](CC(N)=O)NC(=O)[C@@H](CCC(N)=O)NC(=O)[C@@H](CC(=O)O)NC(=O)[C@@H](CC(=O)O)NC(=O)[C@@H](CSC1CC(=O)N(CCNC(=O)CN2CCN(CC(=O)O)CCN(CC(=O)O)CC2)C1=O)NC(=O)[C@@H](C)N)[C@H](C)O)[C@H](C)O)C(=O)N[C@H](Cc1c[nH]c2ccccc12)C(=O)O (stereo partly drawn) [copper-64 labelled] | – | – | male nude mice, LNCaP xenograft | intravenous, dose not given, 4 h | – | blood uptake | 15.3 %ID/g
CC(C)Oc1ccc(CNCCC2(C(C)C)CCOC(C)(C)C2)cc1 (stereo not drawn) | Trypanosoma cruzi | reporter mRNA translation, inhibitor, refers to: capped polyadenylated Renilla luciferase mRNA | cell-free extract | concentration not given | reference: control RNA | relative translation | 68%
Cc1cc(-c2ccc(NC(=O)CC[C@H](NC(=O)CN3CCN(CC(=O)O)CCN(CC(=O)O)CCN(CC(=O)O)CC3)C(=O)NCC(=O)N[C@@H](CC(N)=O)C(=O)N[C@H](C(=O)N[C@H](C(=O)N[C@@H](CCCNC(=N)N)C(=O)N[C@@H](CCC(N)=O)C(=O)O)C(C)C)C(C)C)c(C)c2)ccc1/N=N/c1ccc2c(S(=O)(=O)O)cc(S(=O)(=O)O)c(N)c2c1O [copper-64 labelled] | – | – | nude mice, muscle | intravenous, 2 h | – | tissue uptake | 2.73 ± 0.36 %ID/g
C=C1CC[C@H](OCCCNC(=O)CCOCCOCCOCCOCCOCCOCCOCCOCCOCCOCCOCCOCCOCCOCCOCCOCCOCCOCCOCCOCCOCCOCCOCCOCCOCCOCCOCCOCCOCCOCCOCCOCCOCCOCCOCCOCCNC(=O)CCN2C(=O)CC(SC[C@H](NC(=O)[C@H](Cc3ccccc3)NC(=O)[C@H](CC(N)=O)NC(=O)[C@H](Cc3c[nH]cn3)NC(=O)[C@@H](NC(=O)[C@H](CC(=O)O)NC(=O)[C@H](CCC(N)=O)NC(=O)[C@H](CC(C)C)NC(=O)[C@H](CCCCN)NC(=O)[C@H](CCCCN)NC(=O)[C@H](CCCNC(=N)N)NC(=O)[C@H](CC(C)C)NC(=O)[C@H](Cc3c[nH]c4ccccc34)NC(=O)[C@H](CCC(=O)O)NC(=O)[C@@H](NC(=O)[C@H](CCCNC(=N)N)NC(=O)[C@H](CCC(=O)O)NC(=O)[C@H](CCSC)NC(=O)[C@H](CO)NC(=O)[C@H](CC(N)=O)NC(=O)[C@H](CC(C)C)NC(=O)[C@H](Cc3c[nH]cn3)NC(=O)[C@H](CCCCN)NC(=O)CNC(=O)[C@H](CC(C)C)NC(=O)[C@H](CC(N)=O)NC(=O)[C@H](Cc3c[nH]cn3)NC(=O)[C@H](CCSC)NC(=O)[C@H](CC(C)C)NC(=O)[C@H](CCC(N)=O)NC(=O)[C@@H](NC(=O)[C@H](CCC(=O)O)NC(=O)[C@H](CO)NC(=O)[C@@H](NC(=O)[C@@H](N)CO)C(C)C)[C@@H](C)CC)C(C)C)C(C)C)C(=O)O)C2=O)C/C1=C/C=C1\CCC[C@]2(C)[C@@H]([C@H](C)CCCC(C)(C)O)CC[C@@H]12 (stereo partly drawn) | – | – | male cynomolgus monkey, plasma | subcutaneous, 0.07 mg/kg, single dose | – | MRT | 17.5 h
nucleophosmin T78E | – | far-UV CD, CDSSTR | Tris buffer, NaCl | pH 7.5, room temperature | – | unstructured content | 69%
Cc1ccnc(-c2cc(C(=O)NCCCCCC(=O)N[C@@H](CCCNC(=N)N)C(=O)N[C@@H](CCCNC(=N)N)C(=O)N[C@@H](Cc3c[nH]c4ccccc34)C(=O)N[C@@H](Cc3c[nH]c4ccccc34)C(=O)N[C@@H](CCCNC(=N)N)C(=O)N[C@@H](Cc3c[nH]c4ccccc34)C(=O)N[C@@H](Cc3c[nH]c4ccccc34)C(=O)N[C@@H](CCCNC(=N)N)C(=O)N[C@@H](CCCNC(=N)N)C(N)=O)ccn2)c1 (stereo in doubt) | – | RNO/histidine method | PBS | added: irradiation 365 nm | reference: phenalenone | singlet oxygen yield | 7%

Excerpt of the above:
Substance | tested on | test | system | conditions | how to read | endpoint | value
CCCC[C@@H]1NC(=O)[C@@H](CC(C)C)NC(=O)[C@H](CCCCNC(=O)CN2CCN(CC(=O)O)CCN(CC(=O)O)CC2)NC(=O)[C@@H](CO)NC(=O)[C@H](Cc2c[nH]cn2)NC(=O)[C@@H](Cc2c[nH]c3ccccc23)NC1=O [copper-64 labelled] | – | – | Balb/c mice, bone | intravenous, dose not given | – | tissue uptake | 0.28 ± 0.04 %ID/g
